Measurements from different studies.
Every numbered part comes from another study and shows a few of its results, in no order.

Series 1 — technique: protein-binding microarray; form: double-stranded DNA, one strand shown; matrix: in vitro; tested at: 250 nM; notes: 60-bp whole probe; with: salmon DNA 0.4 mg/ml; reference: random background probes; reading: higher = stronger binding; shared flanks, not repeated: GCCTAGCACT … GTCTTGATTCGCTTGACGCTGCTG
Target: Interferon regulatory factor 7, full length, phosphomimetic (IRF7, Homo sapiens, UniProt Q92985, residues 1-503, S101K/S471D/S472D/S475D/S476D/S477D/S483D/S484D/S487D)
Chain of UniProt Q92985 (whole entry, unmodified, looked up): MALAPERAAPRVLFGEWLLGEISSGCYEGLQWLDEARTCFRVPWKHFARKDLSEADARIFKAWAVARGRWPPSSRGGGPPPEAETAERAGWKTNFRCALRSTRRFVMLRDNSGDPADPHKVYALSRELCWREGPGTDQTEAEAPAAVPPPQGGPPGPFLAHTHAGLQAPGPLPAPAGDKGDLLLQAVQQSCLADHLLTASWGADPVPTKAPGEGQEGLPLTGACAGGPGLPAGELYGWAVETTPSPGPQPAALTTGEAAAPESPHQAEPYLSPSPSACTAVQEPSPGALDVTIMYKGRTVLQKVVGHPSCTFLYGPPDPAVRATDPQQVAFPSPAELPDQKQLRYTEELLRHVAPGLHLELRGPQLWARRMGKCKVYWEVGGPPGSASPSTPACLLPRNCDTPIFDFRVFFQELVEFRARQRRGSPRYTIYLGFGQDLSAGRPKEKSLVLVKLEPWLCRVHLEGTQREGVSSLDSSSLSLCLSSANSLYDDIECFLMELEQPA
| Oligonucleotide | log fluorescence |
| --- | --- |
| TATATCTCAGTCTCGATTAGTGCTAG | 1.9 z-score |
| CAGCCCTCCCTGTGGGACTGTGCTAG | -0.585 z-score |
| TAGAACTGTGTCTCGATTAGTGCTAG | 0.411 z-score |
| TAGGACTGGAAACTGGGTTAGTGCTA | -0.0606 z-score |
| CAGAATTCAGAATGGGACTGTGCTAG | -0.104 z-score |
| TGTGTCTGGGATTTTGTCCGTGCTAG | -1.07 z-score |
| TTTTTTTTTTTTACTTCGGGTGCTAG | 0.886 z-score |
| TAGGACTGAACACTGGGTTAGTGCTA | -0.476 z-score |

Series 2 — technique: competition protein-binding microarray; form: double-stranded DNA, one strand shown; matrix: in vitro; tested at: 2 µM; with: Cbf1 competitor, 0.05 µM; reading: higher = stronger binding
Target: Phosphate system positive regulatory protein PHO4, full length, GST-tagged (PHO4, Saccharomyces cerevisiae, UniProt P07270, residues 1-312)
Notes: whole 60-bp probe, lowest competitor level
Target sequence (chain): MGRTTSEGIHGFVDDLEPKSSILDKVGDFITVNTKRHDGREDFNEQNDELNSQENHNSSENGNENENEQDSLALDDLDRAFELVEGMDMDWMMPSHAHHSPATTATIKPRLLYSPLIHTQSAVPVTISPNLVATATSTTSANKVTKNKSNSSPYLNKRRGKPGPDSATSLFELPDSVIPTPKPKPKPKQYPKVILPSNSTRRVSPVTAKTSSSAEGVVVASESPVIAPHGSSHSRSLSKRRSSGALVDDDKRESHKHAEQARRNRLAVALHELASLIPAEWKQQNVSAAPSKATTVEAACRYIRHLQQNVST
| Oligonucleotide | fluorescence intensity [a.u.] |
| --- | --- |
| TTGCGTTTACGCTCGCGCGTGGGACAACTAACGCAAGTCTTGATTCGCTTGACGCTGCTG | 9010 |
| CTTCTGTAAATTTGTCTTGTGGGTGGACGCGCCCCGGTCTTGATTCGCTTGACGCTGCTG | 4620 |
| AAAGCGGTAATTTGAGCTGTGGGTGCAGATATCTATGTCTTGATTCGCTTGACGCTGCTG | 4100 |
| CGTCCTAGTGATTGTATTGTGGGTGCCATGAGGAAGGTCTTGATTCGCTTGACGCTGCTG | 7110 |

Series 3 — technique: protein binding microarray; form: double-stranded DNA, one strand shown; matrix: in vitro; tested at: not given; reference: not given; reading: higher = stronger binding
Target: Histone acetyltransferase KAT6A, both winged helices, GST fusion (KAT6A, Homo sapiens, UniProt Q92794, residues 1-181)
Notes: 8-mer, flanks averaged, mean of 2 arrays, mostly near background
Construct (chain): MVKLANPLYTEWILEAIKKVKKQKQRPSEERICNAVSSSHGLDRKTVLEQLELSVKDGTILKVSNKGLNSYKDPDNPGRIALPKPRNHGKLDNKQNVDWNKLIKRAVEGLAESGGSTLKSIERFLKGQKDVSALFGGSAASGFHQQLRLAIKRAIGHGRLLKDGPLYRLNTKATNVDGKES
| Oligonucleotide | E-score |
| --- | --- |
| CGGGAGAA | 0.0203 |
| CGTCTCAC | 0.0295 |
| TAAGTAAA | -0.1 |
| TACTTTAA | -0.0981 |
| ACTCGAAT | -0.2 |
| CACCCTGG | -0.284 |
| CAAAGAGA | -0.0306 |

Further values, each from its own experiment
| Substance | target | assay | test system | conditions | scale | endpoint | value |
| --- | --- | --- | --- | --- | --- | --- | --- |
| PhoQ, residues 284 288 289 292 302 303 NLALSC | PhoP, residues 12 14 15 18 19 LYFRQ (Escherichia coli, UniProt P23836) | Sort-seq, measured: YFP reporter | E. coli | PhoQ-PhoP variant library, with: 10 µM Mg2+ | reference: high Mg2+ state, higher = stronger signaling | fold induction | 0.842 |

For quick reference, copied from above (series 1):
| Oligonucleotide | log fluorescence |
| --- | --- |
| TTTTTTTTTTTTACTTCGGGTGCTAG | 0.886 z-score |
| TAGAACTGTGTCTCGATTAGTGCTAG | 0.411 z-score |
| TGTGTCTGGGATTTTGTCCGTGCTAG | -1.07 z-score |
